Published values pooled from the literature.
Parts stem from different laboratories: compare values within a part only.

Series 1
Target: Histone acetyltransferase KAT6A, winged helix 2, GST fusion (KAT6A, Homo sapiens, UniProt Q92794, residues 85-181)
Technique: protein binding microarray
Molecule type: double-stranded DNA, one strand shown
Sample: in vitro
Tested at: not given
Setting: 8-mer, flanks averaged, mean of 2 arrays, mostly near background
Baseline: not given
Reading: higher = stronger binding
Endpoint: E-score
Residues (chain): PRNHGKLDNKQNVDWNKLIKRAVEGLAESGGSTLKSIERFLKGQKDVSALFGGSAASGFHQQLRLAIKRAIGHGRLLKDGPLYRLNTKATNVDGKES
CAAAGTTG: 0.0939
ACTAACGC: 0.00596
ACAGCGGG: 0.198
CCCTGGAG: -0.117
GGGGGAAA: 0.112
CTGAACCC: 0.0359
CAACCCGA: 0.0914
ACTTGTAC: -0.166

Series 2
Target: Interferon regulatory factor 5, full length, phosphomimetic (IRF5, Homo sapiens, UniProt Q13568-2, residues 1-514, K96S/S451D/S453D/S456D/S462D)
Technique: protein-binding microarray
Molecule type: double-stranded DNA, one strand shown
Sample: in vitro
Tested at: 250 nM
Setting: 60-bp whole probe
Added: salmon DNA 0.4 mg/ml
Baseline: random background probes
Reading: higher = stronger binding
Endpoint: log fluorescence
All sequences stand within: GCCTAGCAC … GTCTTGATTCGCTTGACGCTGCTG
TTAAGTCTCGGTATCGGTTAGTGCTAG: 6.31 z-score
GACGATCTCAGTTTCGAGTCGTGCTAG: 5.48 z-score
GACGGTTTCGGGTTTCGGGACGTGCTA: 7.65 z-score
AGGAATTTCCCACTTTCAGTGTGCTAG: 3.64 z-score
AGCTTTCCCAACATCAGAGCGTGCTAG: 0.267 z-score
GACGGTATCAACACTGGGGACGTGCTA: -0.0211 z-score

Series 3
Target: Fragile X messenger ribonucleoprotein 1, C-terminal low-complexity region (Fmr1, Mus musculus, UniProt P35922)
Technique: RNA Bind-n-Seq
Molecule type: RNA
Sample: in vitro
Tested at: 200 nM
Setting: whole 134-nt RNA, ends assumed
Added: 150 mM LiCl
Baseline: input library
Reading: higher = stronger binding
Endpoint: log2 enrichment
Each molecule: 7-deaza-guanosine replaces G
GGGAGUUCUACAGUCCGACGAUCAGUCCUGUGCUACACAUCGUAUGUACCGAAUCGGGGUUUUUGGGGUGGGGAAAGGGGAAAGUAUUAUGUUACGCCGUUCGGAUCUGCACUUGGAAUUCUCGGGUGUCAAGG: -0.253
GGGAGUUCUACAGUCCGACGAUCAAGUCCUGUGCUACACAUCGUAUGUACCGAAUCGGGUUUGGGAAAAAGGGAAAGGGAAAGUAUUAUGUUACGCCGUUCGGAUCUGCACUUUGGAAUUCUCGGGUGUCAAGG: -1.02
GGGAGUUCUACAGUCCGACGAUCUGCCCCUGGUGGCAUGCGGGGAGGAAGAGGUGGCCUCAUGGAUCGUGGUGGUCCCGGUGGAAUGUUCAGAGGUGGCCGUGGUGGAGACAGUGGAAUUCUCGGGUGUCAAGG: -1.2
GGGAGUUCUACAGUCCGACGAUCCUGUGCUACACAUCGUAUGUACCGAAUCGGGGUUUUUUUGGGGUUUUUGGGGAAAAAGGGGAAAGUAUUAUGUUACGCCGUUCGGAUCUGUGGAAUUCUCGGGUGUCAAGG: 0.0196
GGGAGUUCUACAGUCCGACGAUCUCCUGUGCUACACAUCGUAUGUACCGAAUCGGGGUUUUUGGGGUUUGGGGAAAAAGGGGAAAGUAUUAUGUUACGCCGUUCGGAUCUGCAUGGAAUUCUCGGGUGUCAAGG: -1.58
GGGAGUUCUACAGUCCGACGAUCUGGUCCUGGUGGCAUGCGGGGAGGAAGAGGUGGCCUCAUGGAUCGUGGUGGUCCCGGUGGAAUGUUCAGAGGUGGCCGUGGUGGAGACAGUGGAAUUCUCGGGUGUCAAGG: 0.0872
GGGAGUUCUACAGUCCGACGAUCAGUCCUGUGCUACACAUCGUAUGUACCGAAUCGGGAAAAAGGAAAAAGGGGAAAAAGGAAAGUAUUAUGUUACGCCGUUCGGAUCUGCACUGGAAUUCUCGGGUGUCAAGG: -0.911
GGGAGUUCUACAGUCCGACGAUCUGGGAGGUGGAUUUUGUUUAUUUUUUUAGCUCAUUUCCAGGGGUGGGAAUUUUUUUUUAAUAUGUGUCAUGAAUAAACUUGUUUUUGAAAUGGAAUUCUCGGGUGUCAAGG: 0.0494

Other studies, line by line
PhoQ, residues 284 288 289 292 302 303 SASVAL  fold induction (PhoP, residues 12 14 15 18 19 TPWLV (Escherichia coli, UniProt P23836); Sort-seq, refers to: YFP reporter; E. coli; PhoQ-PhoP variant library, added: 10 µM Mg2+; baseline: high Mg2+ state, higher = stronger signaling): 0.943

A few entries again (series 3):
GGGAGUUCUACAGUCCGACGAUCCUGUGCUACACAUCGUAUGUACCGAAUCGGGGUUUUUUUGGGGUUUUUGGGGAAAAAGGGGAAAGUAUUAUGUUACGCCGUUCGGAUCUGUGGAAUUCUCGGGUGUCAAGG: 0.0196
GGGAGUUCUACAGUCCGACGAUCUCCUGUGCUACACAUCGUAUGUACCGAAUCGGGGUUUUUGGGGUUUGGGGAAAAAGGGGAAAGUAUUAUGUUACGCCGUUCGGAUCUGCAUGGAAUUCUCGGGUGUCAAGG: -1.58
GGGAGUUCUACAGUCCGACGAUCUGGUCCUGGUGGCAUGCGGGGAGGAAGAGGUGGCCUCAUGGAUCGUGGUGGUCCCGGUGGAAUGUUCAGAGGUGGCCGUGGUGGAGACAGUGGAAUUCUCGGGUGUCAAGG: 0.0872
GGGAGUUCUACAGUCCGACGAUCAGUCCUGUGCUACACAUCGUAUGUACCGAAUCGGGAAAAAGGAAAAAGGGGAAAAAGGAAAGUAUUAUGUUACGCCGUUCGGAUCUGCACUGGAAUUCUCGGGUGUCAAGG: -0.911
